Published values of several laboratories.
Compare with care: the assays were run in different laboratories. ± marks the error that the study gave.

Compound | tested at | time | DPPH radical scavenging [%]
N#C/C(=C\c1cn(-c2ccccc2)nc1-c1ccc(Cl)cc1Cl)c1nc2ccccc2[nH]1 | 100 µg/mL | 45 min | 55.1 ± 1.65
O=C(O)[C@H]1O[C@@H](Oc2c(-c3ccc(O)c(O)c3)oc3cc(O)cc(O)c3c2=O)[C@H](O)[C@@H](O)[C@@H]1O | 100 µg/mL |  | 82.9 ± 4.3
CCOC(=O)Cc1csc(NC(=O)CCN2CCC(O)CC2)n1 | 0.1 mM | 20 min | 13.3
N#C/C(=C\c1cn(-c2ccccc2)nc1-c1cccc(Cl)c1)c1nc2ccccc2[nH]1 | 100 µg/mL | 45 min | 52.8 ± 1.94
COc1cc(OC)c2c(c1)C(=O)c1cc3oc(=O)cc(-c4ccc(Cl)cc4)c3c(O)c1C2=O | 100 µg/mL |  | 48.6
Cc1ccc(-c2nn(-c3ccccc3)cc2/C=C(\C#N)c2nc3ccccc3[nH]2)cc1 | 100 µg/mL | 45 min | 46.5 ± 1.23
CCCCSc1nnc(-c2ccc(N)cc2)o1 | 2 × IC50 |  | 77.4
Cc1csc(NC(=O)CN2CCC(O)CC2)n1 | 0.2 M | 1 h | 18.1
O=C1NC2=C(C(=O)N(c3ccc(Cl)cc3)C2)C(c2ccc(O)cc2)N1 (stereo not shown) | 100 µg/mL |  | 80
O=C(CCN1CCC(O)CC1)Nc1nc(-c2ccccc2)cs1 | 0.1 mM | 1 h | 25.1
N#C/C(=C\c1cn(-c2ccccc2)nc1-c1ccc([N+](=O)[O-])cc1)c1nc2ccccc2[nH]1 | 100 µg/mL | 45 min | 53.2 ± 0.98
CCCCCCCCCCCCCCc1sc(NC(=O)CN2CCC(O)CC2)nc1-c1ccccc1 | 0.2 M | 1 h | 17.5
Cc1cc(O)c2c(c1)C(=O)c1cc3oc(=O)cc(-c4ccccc4)c3c(O)c1C2=O | 100 µg/mL |  | 28.6
